Measurements pooled from the literature.
Numbered parts are unrelated; each lists some results of a single study. Substitutions count along the parent as printed.

Study 1
Target: CCNB3, cyclin fold, Cln2 fusion (human)
Method: yeast growth competition, sequencing
Sample: yeast
Setting: weak parent motif
Relative to: not given
Reading: higher = stronger binding
Starting sequence: ORC1 docking peptide (human); PRARKRLELGNLG
Under “normalised enrichment score”, `L7M` is recorded as 0.0133.
For `K5P`, “normalised enrichment score” read 0.423.
`P1M`: “normalised enrichment score” -0.203.
For `K5D`, “normalised enrichment score” read -0.0721.
Under “normalised enrichment score”, `L12D` is recorded as -0.134.
`A3K` — result for “normalised enrichment score”: -0.0309.
Under “normalised enrichment score”, `L7H` is recorded as -0.324.
Under “normalised enrichment score”, `G13P` is recorded as 0.143.
`A3E`: “normalised enrichment score” 0.201.
For `L7Y`, “normalised enrichment score” read 0.0806.
For `R6T`, “normalised enrichment score” read 0.325.
`N11T` — result for “normalised enrichment score”: 0.321.
`N11H` — result for “normalised enrichment score”: 0.195.
For `L9T`, “normalised enrichment score” read -0.345.
For `R2K`, “normalised enrichment score” read -0.0413.
Under “normalised enrichment score”, `A3M` is recorded as 1.22.
Under “normalised enrichment score”, `G10P` is recorded as -0.0131.
`P1D`: “normalised enrichment score” 0.551.
For `L12H`, “normalised enrichment score” read 0.418.
`P1Y`: “normalised enrichment score” 0.189.
For `R2P`, “normalised enrichment score” read 0.111.
For `E8Q`, “normalised enrichment score” read 0.345.
`G13H`: “normalised enrichment score” 0.311.
For `E8L`, “normalised enrichment score” read 0.381.
`L12N` — result for “normalised enrichment score”: 0.0323.

Study 2
Target: Fragile X messenger ribonucleoprotein 1, C-terminal low-complexity region (Fmr1, Mus musculus, UniProt P35922)
Method: RNA Bind-n-Seq
Form: RNA
Sample: in vitro
Concentration: 200 nM
Setting: whole 134-nt RNA, ends assumed
Added: 150 mM LiCl
Relative to: input library
Reading: higher = stronger binding
Library: 7-deaza-guanosine replaces G
All sequences stand within: GGGAGUUCUACAGUCCGACGAUC … UGGAAUUCUCGGGUGUCAAGG
`GUCCUGUGCUACACAUCGUAUGUACCGAAUCGGAAAAAAGGGAAAAAAGGGAAAAAAGGAAAGUAUUAUGUUACGCCGUUCGGAUCUGCA` has a log2 enrichment of -0.141.
With `CUCAAGUCCUGUGCUACACAUCGUAUGUACCGAAUCGGGGUUGGGUUGGGUUGGAAAGUAUUAUGUUACGCCGUUCGGAUCUGCACUUCC` the log2 enrichment was -0.454.
The log2 enrichment of `UCAAGUCCUGUGCUACACAUCGUAUGUACCGAAUCGGUUUGGAAAAAAAGGAGGAAAGUAUUAUGUUACGCCGUUCGGAUCUGCACUUCC` is reported as -0.649.
`AAGUCCUGUGCUACACAUCGUAUGUACCGAAUCGGUUUUUUUGGAGGUUUUUUUGGAAAGUAUUAUGUUACGCCGUUCGGAUCUGCACUU` gave a log2 enrichment of -2.04.
For `UCAAGUCCUGUGCUACACAUCGUAUGUACCGAAUCGGUUUGGUUUGGUUUUUGGAAAGUAUUAUGUUACGCCGUUCGGAUCUGCACUUCC`, the log2 enrichment was -1.
`UGUUGCCGUGUGUCUCACCCUACCAUUUCAGAAAAAUGUUCGUUGGUGGCCUGAGCUGGGAUACUAGCAAAAAAGAUUUAAAAGACUAUU` gave a log2 enrichment of -4.32.
The log2 enrichment of `UGGCCCUGGUGGCAUGCGGGGAGGAAGAGGUGGCCUCACGGAUCGUGGUGGUCCCGGUGGAAUGUUCAGAGGUGGCCGUGGUGGAGACAG` is reported as 0.0602.
With `UGGCCCUUGUGGCAUGCGGGGAGGAAGAGGUGGCCUCAUGGAUCGUGGUGGUCCCGGUGGAAUGUUCAGAGGUGGCCGUGGUGGAGACAG` the log2 enrichment was -0.104.

Study 3
Target: Sal-like protein 4, full length isoform B (SALL4, Homo sapiens, UniProt Q9UJQ4-2, residues 1-616)
Method: universal PBM
Form: double-stranded DNA, one strand shown
Sample: in vitro
Concentration: not given
Setting: 8-mer, flanks averaged, mean of replicates
Reading: higher = stronger binding
Target sequence (chain): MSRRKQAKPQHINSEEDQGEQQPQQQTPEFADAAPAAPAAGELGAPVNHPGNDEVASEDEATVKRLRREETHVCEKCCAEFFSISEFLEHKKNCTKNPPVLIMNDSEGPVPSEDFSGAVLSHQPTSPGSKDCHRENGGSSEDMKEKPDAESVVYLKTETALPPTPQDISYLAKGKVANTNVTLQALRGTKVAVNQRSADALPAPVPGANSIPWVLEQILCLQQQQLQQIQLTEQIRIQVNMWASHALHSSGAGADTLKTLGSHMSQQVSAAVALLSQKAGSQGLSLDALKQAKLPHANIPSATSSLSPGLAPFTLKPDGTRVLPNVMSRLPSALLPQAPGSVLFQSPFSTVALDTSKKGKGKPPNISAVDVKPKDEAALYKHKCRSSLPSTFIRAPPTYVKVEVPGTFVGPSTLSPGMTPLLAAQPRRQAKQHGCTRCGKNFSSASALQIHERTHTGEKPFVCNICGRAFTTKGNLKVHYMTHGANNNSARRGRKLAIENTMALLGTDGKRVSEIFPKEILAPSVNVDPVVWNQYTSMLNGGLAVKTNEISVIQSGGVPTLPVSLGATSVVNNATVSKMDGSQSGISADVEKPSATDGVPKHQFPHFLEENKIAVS
`ATTATGTA` gave an E-score of 0.382.
The E-score of `CCGTATGA` is reported as 0.14.
With `CCCAGCGG` the E-score was -0.298.
The E-score of `CATGCCGG` is reported as -0.146.
The E-score of `ATTCTCTC` is reported as -0.0603.
`CCATCAAA` has an E-score of 0.0136.
`CCGCTGGA` gave an E-score of -0.192.
`GTTGTCGA` has an E-score of -0.0359.
The E-score of `GGCACTCA` is reported as -0.0836.
`GGGACCAA` gave an E-score of -0.27.
With `ACCATCGG` the E-score was -0.223.
`ATTTTGGG` gave an E-score of 0.0984.
`CATGTTGA` gave an E-score of 0.232.
`CAAACTAG` gave an E-score of -0.019.
With `CCAAGCAC` the E-score was -0.0319.
`AAACACCG` has an E-score of 0.0395.
With `GATTCTTA` the E-score was 0.237.
`ATTTGCAA` gave an E-score of 0.224.

Study 4
Target: ABI1, truncated, D143A, DHFR fusion (Arabidopsis thaliana)
Method: DHFR PCA, deep sequencing
Sample: yeast
Setting: methotrexate growth selection, single substitutions
Added: (+)-ABA 200 µM
Relative to: wild-type fitted maximum
Reading: higher = stronger binding
Starting sequence: PYL1, truncated, DHFR fusion (Arabidopsis thaliana); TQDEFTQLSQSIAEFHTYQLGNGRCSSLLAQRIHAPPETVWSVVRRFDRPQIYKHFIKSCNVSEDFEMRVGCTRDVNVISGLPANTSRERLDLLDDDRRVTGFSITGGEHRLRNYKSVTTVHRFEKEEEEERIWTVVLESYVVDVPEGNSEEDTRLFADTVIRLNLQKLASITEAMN; partner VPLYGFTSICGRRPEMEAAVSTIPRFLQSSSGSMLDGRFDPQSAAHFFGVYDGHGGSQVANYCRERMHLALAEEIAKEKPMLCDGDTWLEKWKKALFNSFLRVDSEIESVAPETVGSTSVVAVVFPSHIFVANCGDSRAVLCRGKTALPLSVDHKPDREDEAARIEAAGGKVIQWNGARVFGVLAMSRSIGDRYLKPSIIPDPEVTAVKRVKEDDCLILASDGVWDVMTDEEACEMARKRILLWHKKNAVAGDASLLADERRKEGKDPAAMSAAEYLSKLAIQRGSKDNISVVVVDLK
`E89P` — result for “relative binding score”: -5.37%.
`F66L` — result for “relative binding score”: 92.4%.
Under “relative binding score”, `S171P` is recorded as 22.9%.
Under “relative binding score”, `L166N` is recorded as 12.4%.
`R98C` — result for “relative binding score”: 94.5%.
`N85R` — result for “relative binding score”: 105%.
`G102N`: “relative binding score” 2.49%.
`D65R`: “relative binding score” 98.3%.
For `E131K`, “relative binding score” read 114%.
`N114K` — result for “relative binding score”: 77.8%.
Under “relative binding score”, `E151W` is recorded as 85.4%.
`D97A`: “relative binding score” 108%.
`I79K` — result for “relative binding score”: 95.5%.
`I162L`: “relative binding score” 71%.
Under “relative binding score”, `G81L` is recorded as 8.35%.
`F5H` — result for “relative binding score”: 89.4%.
For `V43L`, “relative binding score” read 93.6%.
For `P50A`, “relative binding score” read 35.6%.
Under “relative binding score”, `R69T` is recorded as 100%.
`W134D`: “relative binding score” 95.8%.
For `P83F`, “relative binding score” read 19.6%.
`G71P` — result for “relative binding score”: 66.2%.
Under “relative binding score”, `Q31D` is recorded as -0.0888%.

Excerpt of the above (study 3):
With `CCAAGCAC` the E-score was -0.0319.
`AAACACCG` has an E-score of 0.0395.
With `GATTCTTA` the E-score was 0.237.
`ATTTGCAA` gave an E-score of 0.224.
